Measured values from different studies.
Compare with care: the assays were run in different laboratories. ± gives the spread as reported.

Compound = O=S(=O)(Nc1ccccc1)c1ccc(NC(=S)Nc2ccccc2)cc1; test = measured: EO%; system = female mouse, blood; conditions = oral, 20 mg/kg daily, 14 days; quantity = blood cell fraction; result = 0.72%
Compound = COc1cc2c(Oc3ccc4[nH]c(C)cc4c3F)ccnc2cc1OCC1(N)CC1; system = paediatric recurrent refractory sarcoma; conditions = 10 mg; quantity = Rash incidence; result = 0%
Compound = CCc1ccc(CC/C=C/c2ccc3c(c2)C(=O)CC3)cc1; system = Sprague-Dawley rat, female, blood; conditions = oral, 450 mg/kg/day, 14 days; quantity = platelet distribution width; result = 49.5%
Compound = CC[C@H](C)[C@H](NC(=O)[C@H](Cc1ccccc1)NC(=O)[C@H](CCC(=O)O)NC(=O)[C@H](CCCNC(=N)N)NC(=O)[C@H](C)NC(=O)[C@H](C)NC(=O)[C@H](CCC(N)=O)NC(=O)[C@H](CCC(=O)O)NC(=O)[C@H](CCC(=O)O)NC(=O)[C@H](CC(C)C)NC(=O)[C@H](Cc1ccc(O)cc1)NC(=O)[C@H](CO)NC(=O)[C@H](CO)NC(=O)[C@@H](NC(=O)[C@H](CC(=O)O)NC(=O)[C@H](CO)NC(=O)[C@@H](NC(=O)[C@H](Cc1ccccc1)NC(=O)[C@@H](NC(=O)CNC(=O)[C@H](CCC(=O)O)NC(=O)[C@H](C)NC(=O)CCc1cnc[nH]1)[C@@H](C)O)[C@@H](C)O)C(C)C)C(=O)N[C@@H](C)C(=O)N[C@@H](Cc1c[nH]c2ccccc12)C(=O)N[C@@H](CC(C)C)C(=O)N[C@H](C(=O)N[C@@H](CCCNC(=N)N)C(=O)NCC(=O)N[C@@H](CCCNC(=N)N)C(=O)N[C@@H](CCCCNC(=O)COCCOCCNC(=O)COCCOCCNC(=O)CC[C@H](NC(=O)CCCCCCCCCCCCCCCCC(=O)O)C(=O)O)C(=O)NCC(=O)NCC(=O)N[C@@H](CO)C(=O)N[C@@H](CCCCNC(=O)[C@H](CCCCNc1c(NCCCCCN(O)C(=O)CCC(=O)NCCCCCN(O)C(=O)CCC(=O)NCCCCCN(O)C(C)=O)c(=O)c1=O)Nc1c(NCCCCCN(O)C(=O)CCC(=O)NCCCCCN(O)C(=O)CCC(=O)NCCCCCN(O)C(C)=O)c(=O)c1=O)C(=O)O)C(C)C [zirconium-89 labelled]; test = ex vivo gamma counting; system = male Sprague-Dawley rat, femur; conditions = intravenous, 1 nmol, 24 h; quantity = tissue uptake; result = 0.231 %ID/g
Compound = O=C1Nc2cc3[nH]nc(-c4ccncc4)c3cc2CN1Cc1ccccc1; test = CTCAE v4.03; system = advanced solid tumour patients; conditions = intravenous, 6.4 mg/kg; quantity = patients with acneiform dermatitis; result = 0%
Compound = CCN(CCO)CCCC(C)Nc1ccnc2cc(Cl)ccc12 (stereo not drawn); test = measured: Dyspnea grade 1; system = newly diagnosed glioblastoma patients; conditions = oral, 400 mg/dose, with radiotherapy and temozolomide; quantity = patients with adverse event; result = 14%
Compound = COc1ncnn2ccc(-c3cnc4nc(C)n(Cc5nnc([C@@H](C)F)o5)c4c3)c12; system = human; conditions = oral, dose not given, grade 4; quantity = patients with nausea; result = 0%
Compound = CC(C)C[C@H](NC(=O)[C@H](CCCCN)NC(=O)OCC1c2ccccc2-c2ccccc21)C(=O)N[C@H](C(=O)N[C@@H](Cc1ccccc1)C(=O)N[C@@H](Cc1ccccc1)C(=O)N[C@@H](CCCCN)C(=O)NCC(=O)N[C@@H](Cc1ccccc1)C(=O)N[C@@H](C)C(=O)N[C@@H](Cc1c[nH]c2ccccc12)C(=O)N[C@@H](CC(N)=O)C(=O)N[C@H](C(=O)N[C@H]1CSSC[C@@H](C(=O)N[C@@H](Cc2c[nH]cn2)C(=O)N[C@@H](CCCNC(=N)N)C(=O)N[C@@H](CCCNC(=N)N)C(=O)N[C@@H](C)C(=O)N[C@@H](CC(N)=O)C(N)=O)NC(=O)[C@H](C(C)C)NC(=O)[C@H](CCCNC(=N)N)NC(=O)[C@H](C(C)C)NC(=O)CNC(=O)[C@H](CC(N)=O)NC(=O)[C@H](CCCNC(=N)N)NC(=O)[C@H](Cc2ccc(O)cc2)NC(=O)[C@H](C(C)C)NC1=O)C(C)C)C(C)C; system = ICR mouse, blood; conditions = intramammary, 5 mg/kg, day 5, 3 d dosing; quantity = AST/ALT ratio; result = 0.53 ± 0.04
Compound = C[C@]1(CO)Cc2ncn(-c3ccc(C#N)c(Cl)c3)c2C(=O)O1; system = human, plasma; conditions = 3 mg, first dose fasted; quantity = half-life; result = 5.2 h
Compound = O=C(c1ccc(F)c(F)c1Nc1ccc(I)cc1F)N1CC(O)([C@@H]2CCCCN2)C1; system = patients aged 6 to sample A years; conditions = oral, dose not given; quantity = AE leading dose modification; result = 36%
Compound = C[C@@H]1OC(=O)NN=C1c1ccc(-c2ccc(F)cc2)c(C(F)(F)F)c1; test = phase I trial, measured: muscle spasms all grades; system = human patients; conditions = 10 mg loading then 0.5 mg daily; quantity = patients with adverse event; result = 100%
Compound = NCCCC[C@@H]1NC(=O)[C@@H](Cc2c[nH]c3ccccc23)NC(=O)[C@H](c2ccccc2)NC(=O)[C@@H]2C[C@@H](OC(=O)NCCN)CN2C(=O)[C@H](Cc2ccccc2)NC(=O)[C@H](Cc2ccc(OCc3ccccc3)cc2)NC1=O; system = healthy volunteers, male; conditions = 1950 µg twice daily, 1.0 h, post hoc; quantity = placebo-corrected QTcF change; result = 10.3 ms
Compound = Cc1cc(C)c(CNC(=O)c2cc(Cl)c3c(c2C)O[C@@](C)([C@H]2CC[C@H](N(C)C)CC2)O3)c(=O)[nH]1; system = human, relapsed/refractory NHL; conditions = concentration not given, all TEAEs, grade 5; quantity = Pruritus incidence; result = 0%
Compound = CN1CC[C@@H](c2c(O)cc(O)c3c(=O)cc(-c4ccc(C(F)(F)F)cc4Cl)oc23)[C@@H]1CO; test = measured: Neutropenia; system = AML; conditions = oral, 150 mg, intermittent dosing; quantity = patients with adverse event; result = 25%
Compound = CC(C)N(CCc1c[nH]c2cccc(OC(=O)CCCC(=O)O)c12)C(C)C.Cl; system = male beagle dog, plasma; conditions = intravenous, 1 mg/kg; quantity = AUC(0-t); result = 562 ng·h/mL
Compound = CC(C)C(=O)OC[C@H]1O[C@@H](n2ccc(NO)nc2=O)[C@H](O)[C@@H]1O; system = rat amniotic fluid dialysate; conditions = 5 ng/mL, 6 h, 10 °C, low QC concentration, added: NHC 25 ng/mL; quantity = autosampler stability; result = 96 ± 2.68%
Compound = CCCCCOc1ccc(-c2ccc(-c3ccc(C(=O)N[C@H]4C[C@@H](O)[C@@H](OCC[N+](C)(C)C)NC(=O)[C@@H]5[C@@H](O)[C@@H](C)CN5C(=O)[C@H]([C@@H](C)O)NC(=O)[C@H]([C@H](O)[C@@H](O)c5ccc(O)cc5)NC(=O)[C@@H]5C[C@@H](O)CN5C(=O)[C@H]([C@@H](C)O)NC4=O)cc3)cc2)cc1; system = adult ICU patients, mITT, serum; conditions = dose not given, Follow-up; quantity = potassium; result = 4.1 mmol/L
Compound = CO[C@H]1C[C@@H]2CC[C@@H](C)[C@@](O)(O2)C(=O)C(=O)N2CCCC[C@H]2C(=O)O[C@H]([C@H](C)C[C@@H]2CC[C@@H](OC(=O)NCCOCCOCCOCCOCCOCCOCCOCCOCCC(=O)N3CCc4cc(Cn5nc(-c6ccc7oc(N)nc7c6)c6c(N)ncnc65)ccc4C3)[C@H](OC)C2)C[C@@H](O)[C@H](C)/C=C(\C)[C@@H](O)[C@@H](OC)C(=O)[C@H](C)C[C@H](C)/C=C/C=C/C=C/1C; test = dose-escalation trial; system = patients with advanced solid tumours; conditions = intravenous, all doses weekly, grade ≥3; quantity = maculopapular rash TEAE incidence; result = 3.5%

Repeated from above:
Compound = CC(C)C(=O)OC[C@H]1O[C@@H](n2ccc(NO)nc2=O)[C@H](O)[C@@H]1O; system = rat amniotic fluid dialysate; conditions = 5 ng/mL, 6 h, 10 °C, low QC concentration, added: NHC 25 ng/mL; quantity = autosampler stability; result = 96 ± 2.68%
